Results pooled from the literature.
Parts stem from different laboratories: compare values within a part only. “And” joins repeats or separate records; there may be more than shown.
UniProt P35372, sequence (whole entry, looked up): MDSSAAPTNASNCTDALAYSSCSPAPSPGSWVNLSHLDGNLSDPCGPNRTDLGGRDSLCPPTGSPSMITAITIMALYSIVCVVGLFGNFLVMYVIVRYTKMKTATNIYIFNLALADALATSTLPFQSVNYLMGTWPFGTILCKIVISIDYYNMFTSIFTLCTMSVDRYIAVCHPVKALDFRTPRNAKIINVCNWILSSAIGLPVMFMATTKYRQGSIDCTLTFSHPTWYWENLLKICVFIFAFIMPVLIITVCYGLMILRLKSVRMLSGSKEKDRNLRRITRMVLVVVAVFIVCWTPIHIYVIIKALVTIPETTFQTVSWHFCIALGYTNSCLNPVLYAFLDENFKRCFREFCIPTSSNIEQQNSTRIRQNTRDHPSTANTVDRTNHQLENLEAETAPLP

Sample 1 — read-out: enzyme activity; endpoint: inhibition
SMILES: NC/C(=C\F)COc1ccc(Cn2c(=S)[nH]c(=O)c3[nH]cnc32)cc1
Target: Myeloperoxidase (MPO, Homo sapiens, UniProt P05164)
UniProt P05164, sequence (whole entry, looked up): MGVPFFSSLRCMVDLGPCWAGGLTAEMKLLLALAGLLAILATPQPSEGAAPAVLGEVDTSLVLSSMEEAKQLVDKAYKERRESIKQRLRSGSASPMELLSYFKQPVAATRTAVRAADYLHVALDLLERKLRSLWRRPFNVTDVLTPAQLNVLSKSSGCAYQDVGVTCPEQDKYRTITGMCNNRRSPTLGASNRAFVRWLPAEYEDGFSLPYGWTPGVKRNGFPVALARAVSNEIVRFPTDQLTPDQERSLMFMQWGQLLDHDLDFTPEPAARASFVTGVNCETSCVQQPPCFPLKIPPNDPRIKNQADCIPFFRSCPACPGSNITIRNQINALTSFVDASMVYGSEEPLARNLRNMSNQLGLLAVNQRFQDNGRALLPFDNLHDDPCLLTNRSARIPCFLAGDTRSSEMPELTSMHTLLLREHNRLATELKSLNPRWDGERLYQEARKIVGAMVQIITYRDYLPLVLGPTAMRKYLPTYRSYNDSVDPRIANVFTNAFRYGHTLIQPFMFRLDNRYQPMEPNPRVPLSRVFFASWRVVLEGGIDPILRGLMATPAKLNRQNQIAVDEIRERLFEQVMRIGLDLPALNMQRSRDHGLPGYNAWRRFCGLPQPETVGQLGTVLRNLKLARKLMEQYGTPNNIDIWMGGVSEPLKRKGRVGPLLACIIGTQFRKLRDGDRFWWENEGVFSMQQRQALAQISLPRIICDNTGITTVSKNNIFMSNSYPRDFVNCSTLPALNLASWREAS
tested at = 0.1372 µM; value = -6.73% and -7.5%
mode = inhibitor; technique = fluorescence; tested at = 500 pM; value = -6.92%
tested at = 100 µM; value = 62.4% and 58.9%
tested at = 33.33 µM; value = 41.6% and 54.6%
mode = inhibitor; technique = fluorescence; tested at = 1.111 µM; value = 5.45%

Sample 2 — read-out: enzyme activity; mode: inhibitor; technique: TR-FRET; tested at: 11 µM; endpoint: inhibition
Target: E3 ubiquitin-protein ligase NEDD4 (Homo sapiens, UniProt P46934)
Residues (P46934 938-1319, limits assumed): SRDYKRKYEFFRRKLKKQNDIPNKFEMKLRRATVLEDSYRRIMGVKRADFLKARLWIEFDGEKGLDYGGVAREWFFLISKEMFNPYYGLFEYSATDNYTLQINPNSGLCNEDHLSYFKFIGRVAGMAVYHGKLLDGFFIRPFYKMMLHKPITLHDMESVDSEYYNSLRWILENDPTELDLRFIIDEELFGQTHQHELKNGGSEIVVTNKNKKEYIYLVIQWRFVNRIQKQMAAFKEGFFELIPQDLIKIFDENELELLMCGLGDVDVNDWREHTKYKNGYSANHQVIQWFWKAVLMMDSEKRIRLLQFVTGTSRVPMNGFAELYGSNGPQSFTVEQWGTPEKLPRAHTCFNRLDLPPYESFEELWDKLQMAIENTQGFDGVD
SMILES = COC(=O)/C=C/C(=O)NCCCN1c2ccccc2CCc2ccc(Cl)cc21; value = < 10%
SMILES = CCOC(=O)/C=C/CNCCCN1c2ccccc2CCc2ccc(Cl)cc21; value = 83.4%
SMILES = Cl.NC(=O)/C=C/CNCCCN1c2ccccc2CCc2ccc(Cl)cc21; value = 20.7%
SMILES = CN(C)C/C=C/C(=O)NCCCN1c2ccccc2CCc2ccc(Cl)cc21; value = 16.2%
SMILES = CNC(=O)/C=C/CNCCCN1c2ccccc2CCc2ccc(Cl)cc21.Cl; value = 19.6%

Single results of other studies
Compound = N=C(N)NCCCCCCN1CCC23c4c5ccc(O)c4OC2c2nc4ccccc4cc2CC3(O)C1C5 (stereo not shown); target or system = Mu-type opioid receptor (OPRM1, Homo sapiens, UniProt P35372); assay = competitor, radioligand binding; conditions = 10 µM; endpoint = normalised specific binding; value = -0.974% and 1.33% and 1.43%
Compound = Cn1cc(-c2cccc(CN3CCC4(CC3)COc3c4ccc4c3CN([C@H]3CCC(=O)NC3=O)C4=O)c2)cn1; system = rat; conditions = intravenous, 1 mg/kg, approximate dose; endpoint = CL; value = 22.4 mL/min/kg and 22.1 mL/min/kg and 16.9 mL/min/kg
Compound = CC(C)(C)n1nc(-c2ccc(Cl)cc2)c2c(N)ncnc21; target or system = L929; assay = necroptosis protection, CCK-8; conditions = 0.185 µM, together with: TNF-α-induced; endpoint = viability; value = 18.6%
